# Results from different studies.
# Each numbered part is a random draw from the data of one study; scales do not carry over between parts. Positions count from the first letter of the parent shown.

# Series 1
# Target: Histone acetyltransferase KAT6A, both winged helices, GST fusion (KAT6A, Homo sapiens, UniProt Q92794, residues 1-181)
# Technique: protein binding microarray
# Form: double-stranded DNA, one strand shown
# Matrix: in vitro
# Concentration: not given
# Setting: 8-mer, flanks averaged, mean of 2 arrays, mostly near background
# Relative to: not given
# Reading: higher = stronger binding
# Residues (chain): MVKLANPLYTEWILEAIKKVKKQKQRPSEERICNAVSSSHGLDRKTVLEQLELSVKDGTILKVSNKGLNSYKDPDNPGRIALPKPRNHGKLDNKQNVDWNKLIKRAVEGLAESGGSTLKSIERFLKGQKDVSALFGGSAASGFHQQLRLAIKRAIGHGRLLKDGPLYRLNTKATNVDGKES
Oligonucleotide,E-score
GACTCCGC,0.19
AAAGTCGA,0.00487
TATTTTAA,-0.0517
CTCCGTAA,0.109
ATGAGAAG,-0.0386
CGACAGGC,0.0193
CATTGCAA,-0.0613
AGGGACTC,-0.0722
CCGCAAGG,0.137
CTCGAGGC,-0.0708
AGGGCCCC,0.00687
AGCAATCC,-0.00898
AGGTCCGA,-0.0293
GACTTCGC,0.0873
GACGGCAC,0.202
CTTCGGGA,-0.0321
AGTGAGAC,-0.179
AGTGTTGA,0.0381
GAAGGAAC,0.0925
TGTTACAA,-0.0554

# Series 2
# Target: Phosphate system positive regulatory protein PHO4, full length, GST-tagged (PHO4, Saccharomyces cerevisiae, UniProt P07270, residues 1-312)
# UniProt P07270, sequence (whole entry, looked up): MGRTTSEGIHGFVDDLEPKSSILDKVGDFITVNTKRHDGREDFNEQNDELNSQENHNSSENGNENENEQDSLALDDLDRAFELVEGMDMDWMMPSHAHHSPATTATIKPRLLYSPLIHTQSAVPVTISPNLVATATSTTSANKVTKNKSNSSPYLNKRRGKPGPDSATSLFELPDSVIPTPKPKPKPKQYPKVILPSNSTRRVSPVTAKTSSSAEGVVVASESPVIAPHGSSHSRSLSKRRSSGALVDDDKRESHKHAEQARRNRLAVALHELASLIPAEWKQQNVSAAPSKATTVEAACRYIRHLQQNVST
# Technique: competition protein-binding microarray
# Form: double-stranded DNA, one strand shown
# Matrix: in vitro
# Concentration: 2 µM
# Setting: whole 60-bp probe, lowest competitor level
# Together with: Cbf1 competitor, 0.05 µM
# Reading: higher = stronger binding
# Shared flanks, not repeated: … GTCTTGATTCGCTTGACGCTGCTG
Oligonucleotide,fluorescence intensity [a.u.]
GGCCAAACAACCAGGGTCGTGCCAGTATTTGGCGCC,9850
CTAACGAAGGTTTGTGATGTGGGTGACAAGCCAAGT,4160
GTCTTGTCTCATTGGCCTGTGGGTGTCCCCACTTCA,4580
CTTTCCCGATCTTTTCACGTGGCCTTAGCACATTTG,13700
CTTTCCCGATCTTTTCACGTGGGTTTAGCACATTTG,15800
TCATGGCCTCATCGGCACGTTTACTGAAGACGACGC,11600
AAATTACTAAGTTGGGCGGTGGGTGACGCCGTATGA,4520
TCAGGCATCGTCTCTCACGTGAAATCTGTGGGGGCA,9230
TGGATAAAATTTAAGCGCGTGAAATTGGAATCTAAA,6100
AAAGCGGTAATTTGTCACGTTACTTCACATATCTAT,8450
GTAAATGAGGCCCATCACGCTGACTCACTCGGTCCG,4810
CTTTTTGGAAACGGCCACGTCTTTTGACAGATTTAG,6110
TAACGTACAGGAAGTAACGATCAAACAAAATAAATT,3520
GGCGCAGCGCATCTGCACGTGGTTCCAGGCCGAGCT,17100
CATACCCAACCTTGATGCGTGGGTGAAGATATTTGT,9450
TCTTGAAGATGGTGCAAACAAAGTTCTGTGGGATTC,3170
TAAATAATGGTTTTTCACGTGCATCGAGTCCGTACT,13400
CTAACGAAGGTTTTTCACGTGACGTACAAGCCAAGT,11100
TCTCGACCCGGGTGGCTCGTGCGATCTCCGGAAAAA,8610
TCTTGACATGTTCGGCACGCAAAATACCACCTAGGG,5570

# Series 3
# Target: Interferon regulatory factor 3, full length, phosphomimetic (IRF3, Homo sapiens, UniProt Q14653, residues 1-427, S386D/S396D/S398D/S402D/T404D/S405D)
# Technique: protein-binding microarray
# Form: double-stranded DNA, one strand shown
# Matrix: in vitro
# Concentration: 2540 nM top
# Setting: 60-bp whole probe
# Together with: salmon DNA 0.4 mg/ml
# Relative to: random background probes
# Reading: higher = stronger binding
# Shared flanks, not repeated: GCCTAGCAC … GTCTTGATTCGCTTGACGCTGCTG
# Residues (chain): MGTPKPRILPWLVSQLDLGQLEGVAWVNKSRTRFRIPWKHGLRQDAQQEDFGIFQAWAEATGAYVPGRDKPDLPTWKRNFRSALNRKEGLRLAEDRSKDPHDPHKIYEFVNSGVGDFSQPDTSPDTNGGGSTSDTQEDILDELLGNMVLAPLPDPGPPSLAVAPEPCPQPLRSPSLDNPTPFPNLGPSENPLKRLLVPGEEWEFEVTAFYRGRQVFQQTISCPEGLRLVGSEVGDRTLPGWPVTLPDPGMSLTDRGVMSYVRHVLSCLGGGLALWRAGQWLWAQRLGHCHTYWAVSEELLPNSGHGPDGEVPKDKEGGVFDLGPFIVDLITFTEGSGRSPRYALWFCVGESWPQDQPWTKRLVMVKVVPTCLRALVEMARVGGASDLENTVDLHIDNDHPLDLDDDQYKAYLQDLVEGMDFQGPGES
Oligonucleotide,fitted relative affinity
TGTGTTTTAAATAGGGCAAAGTGCTAG,0.187 z-score
GACGGTCTCGGTATAGGGACGTGCTAG,1.03 z-score
GACGGTTTCGGTCTCGGGATGTGCTAG,8.25 z-score
TCAGGTATTTTTCTAAAACTGTGCTAG,0.57 z-score
GACGGTATCGGGTTTGGGGACGTGCTA,2.28 z-score
GAAAATTAGTGTTTTGCCCTGTGCTAG,-0.0292 z-score
TTAGGTATCGGGCTTCGGTTAGTGCTA,0.541 z-score
TTAGATTTCGGGACTGTATTAGTGCTA,1.28 z-score
TCAGGTATCCTACTGCTTTAGTGCTAG,2.56 z-score
GACGTTCTCCTTCTCCTGACGTGCTAG,3.63 z-score
GAGACTCTAATATTGAGACTGTGCTAG,-0.418 z-score
TTAGAACTGGGGTATTGATTAGTGCTA,-0.697 z-score
AGGACCATCTCATATAAATAGGTGCTA,1.64 z-score
TTAGATTTCAGTCTCTATTAGTGCTAG,2.48 z-score
TTAAGTTTCGGGTTTCGGTTAGTGCTA,6.72 z-score
CTGCCTGCTCAGACTGGGGCGTGCTAG,-0.15 z-score
GACGAACAGGGGTTTCGAGACGTGCTA,0.552 z-score
TCATTACTAAAATTTCATACTGTGCTA,0.749 z-score
TTAGATTCAAGTTTCGATTAGTGCTAG,2.78 z-score
TTAGATAGCAGACTGGATTAGTGCTAG,-0.639 z-score
TTAGAACTGATTCTCGATTAGTGCTAG,0.294 z-score
TCATTTAGTAGTTTCTAACTGTGCTAG,1.62 z-score
GACGATATCTGACTGGAGACGTGCTAG,0.0111 z-score
TCATTTCCCACTTTCAGACTGTGCTAG,3.43 z-score
GCTGTTCTCAGACTGGGTGCGTGCTAG,2.24 z-score

# Series 4
# Target: XBP1, bZIP domain (human)
# Technique: DHFR protein complementation
# Matrix: yeast
# Setting: single substitutions, most at no-binding floor
# Relative to: wild-type JUN-FOS pair
# Reading: higher = stronger binding
# Starting sequence: JUN, bZIP domain (human); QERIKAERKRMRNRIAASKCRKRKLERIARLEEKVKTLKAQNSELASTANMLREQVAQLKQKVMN; partner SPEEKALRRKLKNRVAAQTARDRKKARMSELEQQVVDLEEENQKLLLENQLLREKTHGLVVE
Substitution,binding fitness [natural log]
Q41N,-1.4
I28Y,-1.2
R53G,-1.41
A46Y,-1.3
L52M,-1.09
L52K,-1.3
V56W,-0.514
L45D,-1.5
K39R,-0.554
K34N,-1.45
K39W,-1.38
L31V,-1.33
Q55G,-1.27
S43R,-0.376
V56F,-0.388
L38H,-1.4
E54I,-1.42
E32W,-1.46
L45I,-1.54
K36P,-1.5
K36N,-0.943
A29I,-0.94
L59V,-0.692
L38D,-1.57

# Series 5
# Target: RNA binding protein fox-1 homolog 2, RRM domain, GST-SBP tag (RBFOX2, Homo sapiens, UniProt O43251-10, residues 100-194)
# Technique: RNA Bind-n-Seq
# Form: RNA
# Matrix: in vitro
# Concentration: 365 nM
# Setting: natural RNA segment, single round, ends assumed
# Relative to: no-protein control
# Reading: higher = stronger binding
# Shared flanks, not repeated: GGGAGUUCUACAGUCCGACGAUC … UGGAAUUCUCGGGUGCCAA
# Construct (chain): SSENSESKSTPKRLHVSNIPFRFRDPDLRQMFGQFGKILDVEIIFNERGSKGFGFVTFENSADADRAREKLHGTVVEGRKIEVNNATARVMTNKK
Oligonucleotide,RBNS enrichment (R)
UUUUACACUCUCAACAGCCAAGCACUGCCACGGGGCAGCCACAAUGCCAUGCGUGCUCCAGAGCCUAGGAACAGCAGACAGAACCCAGUUGGAAUGCUUCUACCCUGGCU,0.28
GAAGGUGCCAUUCAGCUCACAGCCGCACCCAGAAUCCUUUGCAGCCCUCCUUCUUUAUUUUUUUCCCAUUGCAUUCUGGGAGUCCACAUCUGGCUUUCUCAGCCACUGUU,0.689
GGGCCCAGGCCUCAGCCCCAGUUCUACCUGGCUUGCUGUCACCGCUCUAGGGGUGGGGGACGUCCCAGGGGAUCCCCAGGAGAAGGAGAGCCCUGUAGGGGGCUGUGCAG,0.427
ACCAGAGUUCUUAAGUGGCCCAGUUGUGGAGCCAAGUCUAAGUCGUGUGGAGUCAGUGCUGACAUCACUGGCUUGUGCUGUCUGUCACAUGUGUUUGUCUCUGCUGCUUG,0.611
AGGCCCCCCUCUGCCCUGAUCCCAUGAAGUGACCUUGGGCACUCCCUUUCCCUCCCUGGGCCUCAGUUUCCCCAUCUCCCAAAUGGGAGGAGGAGCCGGAUUGGGUUAUU,0.487
UUUACCGAAGACAUGCAUACUCCAUCGAUGUUGUAUUCACAGUGGCUGAGGAAUUCUUGUACGCAGUUUCUUUGGCUUCACGAAGCCGAUUAAAAGACCGUGUGAAAUGA,0.267
AAUAAAAUGAAAACGUAUUUAUACUGUUUUUACUAAGGUAACAAAAGCAUGAUAAUCCUUUUUUUUGCAAGUGUAAACGACAGUCUGGACUCUUAACUUCUUAGUGCCUC,3.48
AGACUUGUUAAAUGGCUUUGACCAAAAUGCUGAUAAUGAUUGGGACAUGAAAUCCAGGCUGAGUUGGUCUCAGAUAGCGAUGAGGAACUUGUUUGGUACUGGAGUAAAGG,0.732
UAUGUAAAAUAUGUAUGAAGAAAAGGUGUACAAAAAUUUGCCCUUAUGCACGGAACUCUGUUUCUAAGUGCCAAGCACAGAAAGCCGCUAAAUAAAAUCUUUGCAAUUGU,1.06
AAUCUGUUAAGAUAUGUUUGGUGACCAAAACGUAUGUGUGAAUAUAGUUCUAGCACUUUUAAAUUUUUCCUUUCCAUACAACGCUUGGGCCAGCCUCUCUGUGCUGCGUG,0.803
GAGAAUCUAUUUGGGAAGUGGGUAGGGGGUGGGAGAACAGUGUUGUCACAUGCAUUCUGUGGUGGCCAGCACUACGAAAUGCUACCUUCAAUAAACUGAACCUGCCACUC,0.498
AGACCUGAGCCUGGGUCCUGACUUUUCCAUUGACUAAGCUCUGUGGCCUUGGGCAAGUCACUCCCCCUCUCUGAGCUUCAGUAUCCUCCUGUCACAGGAGGGAGUUGGGC,0.593

# A few entries again (series 3):
Oligonucleotide,fitted relative affinity
TTAGATTTCAGTCTCTATTAGTGCTAG,2.48 z-score
TTAGAACTGATTCTCGATTAGTGCTAG,0.294 z-score
GACGAACAGGGGTTTCGAGACGTGCTA,0.552 z-score
TCAGGTATTTTTCTAAAACTGTGCTAG,0.57 z-score
TTAGATTTCGGGACTGTATTAGTGCTA,1.28 z-score
TCATTACTAAAATTTCATACTGTGCTA,0.749 z-score
GCTGTTCTCAGACTGGGTGCGTGCTAG,2.24 z-score
GACGATATCTGACTGGAGACGTGCTAG,0.0111 z-score
GACGGTTTCGGTCTCGGGATGTGCTAG,8.25 z-score
TTAGAACTGGGGTATTGATTAGTGCTA,-0.697 z-score
TCATTTAGTAGTTTCTAACTGTGCTAG,1.62 z-score
TTAGGTATCGGGCTTCGGTTAGTGCTA,0.541 z-score
GAGACTCTAATATTGAGACTGTGCTAG,-0.418 z-score
GAAAATTAGTGTTTTGCCCTGTGCTAG,-0.0292 z-score
GACGGTCTCGGTATAGGGACGTGCTAG,1.03 z-score
TTAGATTCAAGTTTCGATTAGTGCTAG,2.78 z-score
CTGCCTGCTCAGACTGGGGCGTGCTAG,-0.15 z-score
